Results pooled from the literature.
Numbered parts are unrelated; each lists some results of a single study.

Study 1 — technique: protein binding microarray; form: double-stranded DNA, one strand shown; matrix: in vitro; tested at: not given; baseline: not given; reading: higher = stronger binding; measurement: E-score
Target: Histone acetyltransferase KAT6A, winged helix 1, GST fusion (KAT6A, Homo sapiens, UniProt Q92794, residues 1-85)
Notes: 8-mer, flanks averaged, mean of 2 arrays, mostly near background
Residues (chain): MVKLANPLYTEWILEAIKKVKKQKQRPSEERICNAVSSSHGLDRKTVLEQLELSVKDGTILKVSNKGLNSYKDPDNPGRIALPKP
AGGGGCAC: -0.0558
AACGCCGG: 0.297
GAGGAAAC: -0.0499

Study 2 — technique: aptamer microarray, sandwich; form: DNA with 2'F-ANA; matrix: in vitro; tested at: 200 nM; added: Cy3 exosite-II aptamer, 400 nM; reading: higher = stronger binding; measurement: mean fluorescence intensity
Target: Prothrombin, mature alpha-thrombin (F2, Homo sapiens, UniProt P00734)
Notes: whole 15-mer aptamer, many near background
GGTTGGTGTGGTTGG (2'F-ANA at 4 5 7 8 9 11 12 13): 72.4 a.u.
GGTTGGTGTGGTTGG (2'F-ANA at 3 4 5 8 11 12 13 14 15): 58.1 a.u.
GGTTGGTGTGGTTGG (2'F-ANA at 1 2 4 5 6 7 8 10 12 13 14): 49.3 a.u.

Study 3 — technique: universal PBM; form: double-stranded DNA, one strand shown; matrix: in vitro; tested at: not given; reading: higher = stronger binding; measurement: E-score
Target: Sal-like protein 4, full length isoform B (SALL4, Homo sapiens, UniProt Q9UJQ4-2, residues 1-616)
Notes: 8-mer, flanks averaged, mean of replicates
GAGATTGC: -0.114
AATGGATG: 0.163
AGCGTGAC: -0.133
GGCTAAGA: -0.129

Mixed results
PhoQ, residues 284 288 289 292 302 303 SVTLVV  fold induction (PhoP, residues 12 14 15 18 19 LHSVQ (Escherichia coli, UniProt P23836); Sort-seq, item: YFP reporter; E. coli; PhoQ-PhoP variant library, added: 10 µM Mg2+; baseline: high Mg2+ state, higher = stronger signaling): 11

Excerpt of the above (study 3):
AATGGATG: 0.163
